Values quoted from earlier work as cited in several papers.
Protocols differ between the studies behind these lines. “And” joins repeats or separate records; there may be more than shown. ± gives the spread as reported.
Oprk1: Kappa-type opioid receptor (Oprk1, Mus musculus, UniProt P33534)
Chain of UniProt P33534 (whole entry, looked up): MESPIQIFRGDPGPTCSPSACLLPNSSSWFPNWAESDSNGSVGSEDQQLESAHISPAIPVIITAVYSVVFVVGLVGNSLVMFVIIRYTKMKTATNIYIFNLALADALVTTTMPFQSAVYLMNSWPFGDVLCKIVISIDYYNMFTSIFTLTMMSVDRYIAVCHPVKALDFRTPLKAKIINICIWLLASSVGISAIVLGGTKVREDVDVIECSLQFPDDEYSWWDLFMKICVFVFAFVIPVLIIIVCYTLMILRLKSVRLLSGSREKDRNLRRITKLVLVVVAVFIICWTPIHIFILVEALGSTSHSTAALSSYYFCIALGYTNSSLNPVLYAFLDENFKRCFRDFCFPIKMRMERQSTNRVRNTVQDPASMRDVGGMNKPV
Chain of UniProt P08909 (whole entry, looked up): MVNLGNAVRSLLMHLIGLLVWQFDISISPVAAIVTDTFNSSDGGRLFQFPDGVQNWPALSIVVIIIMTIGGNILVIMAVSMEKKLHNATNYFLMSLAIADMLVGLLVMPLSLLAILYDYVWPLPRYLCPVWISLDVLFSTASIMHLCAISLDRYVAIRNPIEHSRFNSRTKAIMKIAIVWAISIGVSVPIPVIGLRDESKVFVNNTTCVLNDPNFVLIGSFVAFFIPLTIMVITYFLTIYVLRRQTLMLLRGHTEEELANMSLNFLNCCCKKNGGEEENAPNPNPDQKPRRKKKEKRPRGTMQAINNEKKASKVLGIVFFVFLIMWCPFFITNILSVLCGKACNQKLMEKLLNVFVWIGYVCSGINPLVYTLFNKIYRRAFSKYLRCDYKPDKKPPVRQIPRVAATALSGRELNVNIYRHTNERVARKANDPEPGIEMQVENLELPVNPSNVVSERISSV

| Compound | target or system | test | system | setting | measurement | result |
| --- | --- | --- | --- | --- | --- | --- |
| O=S(=O)([O-])C(F)(F)C(F)(F)C(F)(F)C(F)(F)C(F)(F)C(F)(F)F.[K+] | CYP3A4 |  |  | concentration not given | activity | inactive |
| CC(NC(C)(C)C)C(=O)c1cccc(Cl)c1 (stereo not shown) | nicotinic acetylcholine receptor α7 | antagonist |  |  | IC50 | 54000 nM |
| O=C(N[C@@H]1CCC2C3Cc4ccc(O)c5c4[C@@]2(CCN3CC2CC2)C1O5)c1cccc(I)c1 (stereo partly shown) | Oprk1 |  |  |  | EC50 | 0.13 ± 0.02 nM |
| CCCC(C)(C)c1ccc2c(c1)OC(C)(C)[C@@H]1CC=C(C)C[C@@H]21 | cannabinoid receptor 1, human | binding |  |  | Ki | 677 nM |
| CCc1c(C(=O)NN2CCCCC2)nc(-c2ccc(Cl)cc2Cl)n1-c1ccc(Cl)cc1 | CB2 receptor | binding |  |  | Ki | 608 nM |
| CCCCCOc1ccc(-c2ccc(-c3ccc(C(=O)N[C@H]4C[C@@H](O)[C@@H](O)NC(=O)[C@@H]5[C@@H](O)[C@@H](C)CN5C(=O)[C@H]([C@@H](C)O)NC(=O)[C@H]([C@H](O)[C@@H](O)c5ccc(O)cc5)NC(=O)[C@@H]5C[C@@H](O)CN5C(=O)[C@H]([C@@H](C)O)NC4=O)cc3)cc2)cc1 |  |  | human renal impairment severe | 50 mg single dose | volume of distribution | 39.6 ± 9.4 L |
| N[C@@H]1C[C@H]1c1ccccc1 | tyramine oxidase (Arthrobacter sp.) |  |  | pH 7.2 | IC50 | 35000 nM and 33000 nM |
| COC(=O)[C@@H]1C[C@H](OC(C)=O)C(=O)[C@H]2[C@@]1(C)CC[C@H]1C(=O)O[C@H](c3ccoc3)C[C@]21C | kappa opioid receptor V108A/V118K |  |  |  | Ki | > 5000 nM |
| O=C(NC1C=C[C@H]2[C@H]3Cc4ccc(O)c5c4[C@@]2(CCN3CC2CC2)C1O5)c1cccc(I)c1 (stereo partly shown) | Oprk1 |  |  |  | EC50 | 0.027 ± 0.002 nM |
| O=S(=O)([O-])C(F)(F)C(F)(F)C(F)(F)C(F)(F)C(F)(F)C(F)(F)C(F)(F)C(F)(F)F.[Li+] | CYP3A4 | inhibitor |  | Tox21 screening | IC50 | inactive |
| CCS(=O)(=O)n1c2c(c3cc(C(=O)N4CCC(F)CC4)ccc31)CN(C1CCCC1)C2 | CB2 receptor | binding |  |  | Ki | 44.2 nM |
| O=C(O)CC(=O)C(=O)O | Thermoplasma acidophilum citrate synthase W348Y | fluorescence titration |  | 20 °C, unliganded enzyme | Kd | 900 nM |
| CC1=CCC2C(C1)c1c(O)cc(C(C)(C)CCCCCC#N)cc1OC2(C)C (stereo not shown) | CB1 receptor | binding |  |  | Ki | 0.19 nM |
| COc1cc(C[C@@H](C)N)c(OC)cc1I | 5-hydroxytryptamine receptor 2C (Rattus norvegicus, UniProt P08909) | agonist |  |  | EC50 | 30.2 nM |
| CC1(C)NC(=O)N(c2ccc(F)c(C(F)(F)F)c2)C1=O | Fasciola hepatica |  |  | concentration not given | anthelmintic activity | inactive |
| CCCCCn1c(C)c(C(=O)c2cccc3cc(OC)ccc23)c2ccccc21 | CB1 receptor | binding |  |  | Ki | 250 nM |

For quick reference, copied from above:
| Compound | target or system | test | system | setting | measurement | result |
| --- | --- | --- | --- | --- | --- | --- |
| COc1cc(C[C@@H](C)N)c(OC)cc1I | 5-hydroxytryptamine receptor 2C (Rattus norvegicus, UniProt P08909) | agonist |  |  | EC50 | 30.2 nM |
| CC1=CCC2C(C1)c1c(O)cc(C(C)(C)CCCCCC#N)cc1OC2(C)C (stereo not shown) | CB1 receptor | binding |  |  | Ki | 0.19 nM |
